Measured values of several laboratories.
Compare with care: the assays were run in different laboratories.
Cell line: PC-3

SMILES | assay | setting | how to read | measurement | result
Cn1cncc1C1=CN(c2ncnc3[nH]cnc23)CCS1 |  | prostate cancer |  | GI50 | 19.5 µM
O=c1ccn(Cc2cn(-c3cc4ccccc4oc3=O)nn2)c(=O)[nH]1 | NCI60 single-dose screen | 10 µM |  | growth percentage | 89.3%
CCOC(=O)CSc1nc(-c2ccc(Cl)cc2)c2c(NC(=O)c3ccccc3)nnc-2[nH]1 | SRB | 10 µM, NCI60 single-dose screen, prostate cancer | baseline: untreated | cell growth | 104%
CCOc1ccc2c(C)c(CC)c(=O)oc2c1C | cell viability, MTT |  |  | IC50 | 126 µg/mL
COc1cnc2cccc(N3CCc4c(cc(Cn5ccnc5C)cc4-c4cn(C)nc4C(F)(F)F)C3=O)c2c1 | cell growth, inhibitor | 120 h |  | EC50 | > 30 µM
C#C[C@@]1(O)[C@@H](CO)O[C@@H](n2cc(F)c3c(N)ncnc32)[C@@H]1O | SRB | NCI-60 screen |  | TGI | 3.24 µM
C=CC(=O)N1CCC(COCC(=O)N2CCN(c3nc(-c4cnc(N)nc4C(F)F)nc(N4CCOC[C@@H]4C)n3)CC2)CC1 | western blot, item: phospho-S6 Ser235/Ser236 | 2 h |  | IC50 | 0.325 µM
Cc1nc(NC(=O)N2CCC[C@H]2C(N)=O)sc1-c1ccnc(C(C)(C)C(F)(F)F)c1 | immunoblot, item: PDCD4 | 1 µM, 24 h |  | protein level | increased
Cc1cc(-c2ccccc2)n(-c2nc(-c3ccc(Cl)cc3)c3c(NC(=O)c4ccccc4)nnc-3[nH]2)n1 | SRB | 10 µM, NCI60 single-dose screen, prostate cancer | baseline: untreated | cell growth | 96.9%
N=C(Nc1ccccc1)c1cc2c(-c3ccccc3)n[nH]c2c(Nc2ccccc2)n1 | flow cytometry | concentration not given, 48 h |  | G2/M phase cells | 26%
Cc1cc(=O)[nH]c(=O)n1Cc1cn(-c2cc3ccccc3oc2=O)nn1 | NCI60 single-dose screen | 10 µM |  | growth percentage | 85.6%
CCCN1CCN(c2ccc3[nH]c(-c4ccc5[nH]c(-c6ccc(C(F)(F)F)cc6)nc5c4)nc3c2)CC1 | SRB | 10 µM, 48 h |  | growth percent | -68%
CCCOc1nc(-c2cccc(O)c2)cc(-c2cc3ccccc3nc2N2CCOCC2)c1C#N | MTT |  | baseline: WI-38 EC50 over PC-3 IC50 | selectivity ratio | 0.781
Cc1ncsc1-c1ccc(CNC(=O)[C@@H]2C[C@@H](O)CN2C(=O)[C@@H](NC(=O)CCCCCCCCCC(=O)N2CCN(CC[C@H](NC(=O)C3(N)CCN(c4ncnc5[nH]ccc45)CC3)c3ccc(Cl)cc3)CC2)C(C)(C)C)cc1 | immunoblot, item: AURKB | 1 µM, 24 h |  | protein level | decreased
NCc1cc2c(-c3ccccc3)n[nH]c2c(Nc2ccccc2)n1 | flow cytometry | concentration not given, 72 h |  | G2/M phase cells | 24%
O=P1(C2CCCCC2)CCCCC1 | ELISA | concentration not given, at IC50 | baseline: untreated | IL-6 reduction | 60.5%
O=C(Nc1nnc2n3c(=S)[nH][nH]c3nc(-c3ccc(Cl)cc3)c1-2)c1ccccc1 | SRB | 10 µM, NCI60 single-dose screen, prostate cancer | baseline: untreated | cell growth | 94.2%
Cc1nc(NC(=O)N2CCC[C@H]2C(N)=O)sc1-c1ccnc(C(C)(C)C(F)(F)F)c1 | resazurin growth rate inhibition | 72 h |  | GR50 | > 5 µM
O=C1NC(c2ccccc2)(c2ccccc2)C(=O)N1Cc1cn(-c2cc3ccccc3oc2=O)nn1 | NCI60 single-dose screen | 10 µM |  | growth percentage | 76.4%
CC(=NNC(=O)COc1ccc2c(C)c(Cc3ccccc3)c(=O)oc2c1C)c1ccc(Br)cc1 | cell viability, MTT |  |  | IC50 | 1.91 µg/mL

SMILES | assay | setting | how to read | measurement | result
CCn1cc(-c2cc(Cn3ccoc3=N)cc3c2CCN([C@@H](C)c2cc(OC)ccn2)C3=O)c(C(F)(F)F)n1 | cell growth, inhibitor | 120 h |  | EC50 | > 30 µM
CCc1c(C)c2ccc(OCC=Cc3ccccc3)c(C)c2oc1=O | cell viability, MTT |  |  | IC50 | 85.3 µg/mL
C#C[C@@]1(O)[C@@H](CO)O[C@@H](n2ccc3c(N)ncnc32)[C@@H]1O | SRB | NCI-60 screen |  | TGI | 3.54 µM
COc1ccc(OC)c(-c2nc3ccc(-c4nc5ccc(N6CCN(C)CC6)cc5[nH]4)cc3[nH]2)c1 | SRB | 10 µM, 48 h |  | growth percent | 99.2%
CCCOc1nc(-c2cccc(O)c2)cc(-c2cc3cc(Cl)ccc3nc2N2CCOCC2)c1C#N | MTT |  | baseline: WI-38 EC50 over PC-3 IC50 | selectivity ratio | 0.113
O=P1(c2ccccc2)CCCCC1 | MTT | 72 h | baseline: IC50 HaCaT over IC50 PC-3 | selectivity index | 1
O=C(Nc1nnc2n3c(Cc4ccccc4)n[nH]c3nc(-c3ccc(Cl)cc3)c1-2)c1ccccc1 | SRB | 10 µM, NCI60 single-dose screen, prostate cancer | baseline: untreated | cell growth | 101%
O=C1/C(=C/c2ccc3ccccc3c2O)NC(=S)N1c1ccccc1 | MTT |  | baseline: BJ1 over PC-3 | selectivity index | 1.8
Cc1n[nH]c2nc(-c3ccc(Cl)cc3)c3c(NC(=O)c4ccccc4)nnc-3n12 | SRB | 10 µM, NCI60 single-dose screen, prostate cancer | baseline: untreated | cell growth | 101%
CCc1c(C)c2ccc(OCC(=O)NNC(=S)Nc3ccccc3)c(C)c2oc1=O | cell viability, MTT |  |  | IC50 | 29.8 µg/mL
CN1CCN(c2ccc3[nH]c(-c4ccc5[nH]c(-c6ccc(C(F)(F)F)cc6)nc5c4)nc3c2)CC1 | SRB | 10 µM, 48 h |  | growth percent | 30.2%
NC1(C(=O)N[C@@H](CCO)c2ccc(Cl)cc2)CCN(c2ncnc3[nH]ccc23)CC1 | immunoblot, item: AURKB | 1 µM, 24 h |  | protein level | decreased
CCOc1nc(-c2cccc(O)c2)cc(-c2cc3ccccc3nc2N2CCOCC2)c1C#N | MTT |  | baseline: WI-38 EC50 over PC-3 IC50 | selectivity ratio | 0.322
CCCCN1CCN(c2ccc3[nH]c(-c4ccc5[nH]c(-c6ccc(OCC)cc6)nc5c4)nc3c2)CC1 | SRB | 10 µM, 48 h |  | growth percent | 56.7%
CS(=O)(=O)N1CCN(Cc2cc3nc(-c4cccc5[nH]ncc45)nc(N4CCOCC4)c3s2)CC1 | immunoblot, item: AURKB | 1 µM, 24 h |  | protein level | decreased
CSc1nc(-c2ccc(Cl)cc2)c2c(NC(=O)c3ccccc3)nnc-2[nH]1 | SRB | 10 µM, NCI60 single-dose screen, prostate cancer | baseline: untreated | cell growth | 76.3%
CCOc1ccc(-c2nc3cc(-c4nc5cc(N6CCN(C)CC6)ccc5[nH]4)ccc3[nH]2)cc1OCC | SRB | 10 µM, 48 h |  | growth percent | 17.2%
CCC(=O)N1CCC(COCC(=O)N2CCN(c3nc(-c4cnc(N)nc4C(F)F)nc(N4CCOC[C@@H]4C)n3)CC2)CC1 | western blot, item: phospho-S6 Ser235/Ser236 | 2 h |  | IC50 | 0.438 µM
CCCCN1CCN(c2ccc3nc(-c4ccc5nc(-c6cc(OC)ccc6OC)[nH]c5c4)[nH]c3c2)CC1 | SRB | 10 µM, 48 h |  | growth percent | 97.2%
Cc1c(Cc2ccccc2)c(=O)oc2c(C)c(OCC(=O)NN=Cc3ccc([N+](=O)[O-])cc3)ccc12 | cytotoxicity, MTT |  |  | IC50 | 11.2 µg/mL

Repeated from above:
SMILES | assay | setting | how to read | measurement | result
C#C[C@@]1(O)[C@@H](CO)O[C@@H](n2cc(F)c3c(N)ncnc32)[C@@H]1O | SRB | NCI-60 screen |  | TGI | 3.24 µM
CS(=O)(=O)N1CCN(Cc2cc3nc(-c4cccc5[nH]ncc45)nc(N4CCOCC4)c3s2)CC1 | immunoblot, item: AURKB | 1 µM, 24 h |  | protein level | decreased
CC(=NNC(=O)COc1ccc2c(C)c(Cc3ccccc3)c(=O)oc2c1C)c1ccc(Br)cc1 | cell viability, MTT |  |  | IC50 | 1.91 µg/mL
